Literature values, collected from citations in different studies.
Lines come from different studies, so protocols differ. ± marks the error that the study gave.
GABRA1/GABRB3 L291T with gamma-2 subunit: GABA-A receptor alpha-1/beta-3, with gamma-2 subunit (GABRA1/GABRB3, Homo sapiens, UniProt P14867+P28472, L291T)
UniProt P14867, sequence (whole entry, unmodified, looked up): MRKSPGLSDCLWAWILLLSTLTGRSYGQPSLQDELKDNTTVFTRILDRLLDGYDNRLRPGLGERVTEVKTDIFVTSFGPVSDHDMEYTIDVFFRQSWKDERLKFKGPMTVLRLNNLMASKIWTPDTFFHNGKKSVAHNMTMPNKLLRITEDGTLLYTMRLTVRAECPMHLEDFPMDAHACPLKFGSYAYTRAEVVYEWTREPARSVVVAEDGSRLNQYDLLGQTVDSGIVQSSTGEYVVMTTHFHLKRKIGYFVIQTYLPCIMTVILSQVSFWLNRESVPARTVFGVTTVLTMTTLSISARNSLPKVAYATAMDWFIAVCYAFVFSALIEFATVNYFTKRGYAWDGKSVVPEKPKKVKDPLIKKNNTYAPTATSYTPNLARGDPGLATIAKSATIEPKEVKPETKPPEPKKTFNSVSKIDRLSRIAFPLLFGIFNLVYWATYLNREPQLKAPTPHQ
UniProt P28472, sequence (whole entry, unmodified, looked up): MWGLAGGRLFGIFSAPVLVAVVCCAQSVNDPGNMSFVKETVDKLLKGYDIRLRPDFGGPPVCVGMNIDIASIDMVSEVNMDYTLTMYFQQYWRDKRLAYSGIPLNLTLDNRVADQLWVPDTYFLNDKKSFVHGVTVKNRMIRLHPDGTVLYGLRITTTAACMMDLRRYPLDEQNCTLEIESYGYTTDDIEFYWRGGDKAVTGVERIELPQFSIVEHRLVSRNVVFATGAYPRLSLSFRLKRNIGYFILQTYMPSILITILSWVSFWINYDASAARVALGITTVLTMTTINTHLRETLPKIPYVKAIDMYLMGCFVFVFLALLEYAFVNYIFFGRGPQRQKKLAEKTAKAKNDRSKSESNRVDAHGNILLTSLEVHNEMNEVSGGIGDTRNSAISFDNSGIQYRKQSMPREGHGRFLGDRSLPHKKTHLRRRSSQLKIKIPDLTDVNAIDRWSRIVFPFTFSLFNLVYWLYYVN
Slc6a3: Sodium-dependent dopamine transporter (Slc6a3, Rattus norvegicus, UniProt P23977)
UniProt P23977, sequence (whole entry, looked up): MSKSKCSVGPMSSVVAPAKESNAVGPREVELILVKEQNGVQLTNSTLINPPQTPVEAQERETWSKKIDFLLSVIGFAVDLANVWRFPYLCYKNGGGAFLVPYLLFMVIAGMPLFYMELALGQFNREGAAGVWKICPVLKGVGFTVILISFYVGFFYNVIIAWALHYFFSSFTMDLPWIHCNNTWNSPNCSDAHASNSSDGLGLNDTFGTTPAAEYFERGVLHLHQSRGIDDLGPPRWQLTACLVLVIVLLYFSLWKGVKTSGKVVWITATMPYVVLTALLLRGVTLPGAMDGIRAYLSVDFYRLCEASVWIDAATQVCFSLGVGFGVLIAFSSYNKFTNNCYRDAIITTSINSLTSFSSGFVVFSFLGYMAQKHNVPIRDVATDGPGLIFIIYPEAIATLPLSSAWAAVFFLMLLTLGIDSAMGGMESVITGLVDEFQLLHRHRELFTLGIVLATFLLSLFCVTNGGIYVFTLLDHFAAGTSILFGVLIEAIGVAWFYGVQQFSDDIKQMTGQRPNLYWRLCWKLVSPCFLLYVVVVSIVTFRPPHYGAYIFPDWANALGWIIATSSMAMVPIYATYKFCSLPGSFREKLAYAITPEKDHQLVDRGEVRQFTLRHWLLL
DRD1: D(1A) dopamine receptor (DRD1, Homo sapiens, UniProt P21728)
UniProt P21728, sequence (whole entry, looked up): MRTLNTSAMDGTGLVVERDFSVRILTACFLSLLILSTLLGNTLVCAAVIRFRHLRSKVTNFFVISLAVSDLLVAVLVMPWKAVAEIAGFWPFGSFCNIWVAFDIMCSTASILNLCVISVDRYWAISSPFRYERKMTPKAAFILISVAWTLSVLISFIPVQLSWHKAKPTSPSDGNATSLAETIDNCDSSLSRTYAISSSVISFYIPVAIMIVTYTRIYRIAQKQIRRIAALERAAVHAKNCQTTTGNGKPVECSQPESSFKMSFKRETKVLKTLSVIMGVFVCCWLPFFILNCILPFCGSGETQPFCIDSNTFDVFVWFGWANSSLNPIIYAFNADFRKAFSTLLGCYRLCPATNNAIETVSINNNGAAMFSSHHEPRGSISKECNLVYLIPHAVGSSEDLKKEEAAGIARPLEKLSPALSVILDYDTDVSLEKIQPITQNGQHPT
Slc6a4: Sodium-dependent serotonin transporter (Slc6a4, Rattus norvegicus, UniProt P31652)
UniProt P31652, sequence (whole entry, looked up): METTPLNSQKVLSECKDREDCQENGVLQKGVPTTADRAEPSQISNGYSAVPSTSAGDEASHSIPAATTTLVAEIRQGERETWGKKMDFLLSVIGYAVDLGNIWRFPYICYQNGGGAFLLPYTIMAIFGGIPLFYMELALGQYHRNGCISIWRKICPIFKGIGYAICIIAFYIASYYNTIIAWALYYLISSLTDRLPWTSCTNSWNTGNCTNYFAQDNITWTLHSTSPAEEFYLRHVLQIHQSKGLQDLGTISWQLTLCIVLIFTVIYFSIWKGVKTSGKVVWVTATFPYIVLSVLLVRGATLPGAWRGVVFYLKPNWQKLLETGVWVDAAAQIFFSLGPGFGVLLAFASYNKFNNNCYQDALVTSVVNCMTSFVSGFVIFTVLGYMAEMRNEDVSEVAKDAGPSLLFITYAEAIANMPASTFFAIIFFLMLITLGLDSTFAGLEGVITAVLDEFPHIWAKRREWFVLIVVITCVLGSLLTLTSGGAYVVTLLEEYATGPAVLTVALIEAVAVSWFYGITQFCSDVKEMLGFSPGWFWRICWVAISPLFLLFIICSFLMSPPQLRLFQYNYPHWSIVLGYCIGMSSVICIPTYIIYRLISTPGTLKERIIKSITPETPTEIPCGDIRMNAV
UniProt Q01959, sequence (whole entry, looked up): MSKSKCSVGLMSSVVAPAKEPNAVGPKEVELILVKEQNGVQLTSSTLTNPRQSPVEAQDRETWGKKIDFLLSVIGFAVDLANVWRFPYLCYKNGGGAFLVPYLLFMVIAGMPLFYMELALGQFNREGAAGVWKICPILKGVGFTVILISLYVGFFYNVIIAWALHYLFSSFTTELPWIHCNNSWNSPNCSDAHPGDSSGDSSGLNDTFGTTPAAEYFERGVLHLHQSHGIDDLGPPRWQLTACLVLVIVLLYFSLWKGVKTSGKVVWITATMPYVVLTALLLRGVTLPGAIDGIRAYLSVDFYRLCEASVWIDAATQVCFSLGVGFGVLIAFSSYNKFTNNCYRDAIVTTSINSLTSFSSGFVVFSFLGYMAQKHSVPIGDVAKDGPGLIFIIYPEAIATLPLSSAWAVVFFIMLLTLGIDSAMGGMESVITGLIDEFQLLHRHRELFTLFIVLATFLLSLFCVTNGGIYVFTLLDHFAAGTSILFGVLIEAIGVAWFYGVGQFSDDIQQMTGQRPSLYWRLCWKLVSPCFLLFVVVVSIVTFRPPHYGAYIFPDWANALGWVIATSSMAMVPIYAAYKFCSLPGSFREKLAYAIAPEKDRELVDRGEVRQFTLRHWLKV
UniProt Q96RJ0, sequence (whole entry, looked up): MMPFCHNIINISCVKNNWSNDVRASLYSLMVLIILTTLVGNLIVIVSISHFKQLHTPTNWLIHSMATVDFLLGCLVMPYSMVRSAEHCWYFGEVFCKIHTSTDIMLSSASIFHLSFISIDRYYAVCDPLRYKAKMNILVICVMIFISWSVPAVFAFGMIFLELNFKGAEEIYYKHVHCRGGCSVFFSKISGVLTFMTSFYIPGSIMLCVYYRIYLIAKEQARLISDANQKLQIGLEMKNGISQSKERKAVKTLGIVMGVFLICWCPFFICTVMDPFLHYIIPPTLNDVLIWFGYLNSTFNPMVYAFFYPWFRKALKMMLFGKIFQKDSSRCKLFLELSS
UniProt P28223, sequence (whole entry, looked up): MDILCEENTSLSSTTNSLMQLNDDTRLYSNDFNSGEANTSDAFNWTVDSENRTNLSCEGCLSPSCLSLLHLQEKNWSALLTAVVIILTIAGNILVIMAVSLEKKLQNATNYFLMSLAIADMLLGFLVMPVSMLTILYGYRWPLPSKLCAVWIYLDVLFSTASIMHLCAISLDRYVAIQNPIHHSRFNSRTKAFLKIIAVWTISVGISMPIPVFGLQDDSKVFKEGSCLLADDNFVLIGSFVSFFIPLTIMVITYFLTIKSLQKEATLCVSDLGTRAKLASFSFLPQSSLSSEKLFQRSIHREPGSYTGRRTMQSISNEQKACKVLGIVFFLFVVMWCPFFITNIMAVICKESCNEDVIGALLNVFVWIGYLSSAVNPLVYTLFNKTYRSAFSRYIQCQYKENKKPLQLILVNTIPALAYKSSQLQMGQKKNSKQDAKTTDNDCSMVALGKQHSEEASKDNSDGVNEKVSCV

COc1cc(CCN)c(OC)cc1I — EC50 (5-hydroxytryptamine receptor 2A (HTR2A, Homo sapiens, UniProt P28223); agonist): 60 nM
cyclopropyl methoxycarbonyl metomidate — EC50 (GABRA1/GABRB3 L291T with gamma-2 subunit; ion current, agonist; peak 50% of 100 µM GABA): 3800 ± 400 nM
CNC(C)C(=O)c1ccc(C)cc1 (stereo not shown) — EC50 (Slc6a3): 51 ± 5 nM
CNC(C)Cc1ccc2c(c1)OCO2 (stereo not shown) — EC50 (Sodium-dependent dopamine transporter (SLC6A3, Homo sapiens, UniProt Q01959); [3H]dopamine release, releaser; HEK293 expressing transporter): 7500 ± 2300 nM
NCCc1ccccc1 — EC50 (Trace amine-associated receptor 1 (TAAR1, Homo sapiens, UniProt Q96RJ0); agonist): 138 to 260 nM
C=CCN(CC=C)CCc1c[nH]c2ccc(Br)cc12 — Ki (DRD1): > 10000 nM
CNC(C)C(=O)c1ccc(Cl)cc1 (stereo not shown) — EC50 (Slc6a3; substrate release, releaser; rat brain synaptosomes): 42.2 nM
C=CCN(CC=C)CCc1c[nH]c2ccc(OC)cc12 — Ki (DRD1): > 10000 nM
CNC(C)C(=O)c1ccccc1 (stereo not shown) — EC50 (Slc6a3; substrate release, releaser; rat brain synaptosomes): 12.5 nM
CC1(C)C(C(=O)c2cn(CCCCCF)c3ccccc23)C1(C)C — EC50 (CB1 receptor; GIRK channel current, agonist): 98 nM
CNC(C)C(=O)c1ccc(C(F)(F)F)cc1 (stereo not shown) — EC50 (Slc6a4; substrate release, releaser; rat brain synaptosomes): 190 nM
CCOC(=O)c1cncn1Cc1ccccc1 — EC50 (GABRA1/GABRB3 L291T with gamma-2 subunit; ion current, agonist; 50% of 100 µM GABA current): 161000 ± 13000 nM
CNC(C)C(=O)c1ccc2c(c1)OCO2 (stereo not shown) — EC50 (Slc6a4): 234 ± 35 nM

A few entries again:
COc1cc(CCN)c(OC)cc1I — EC50 (5-hydroxytryptamine receptor 2A (HTR2A, Homo sapiens, UniProt P28223); agonist): 60 nM
